Published values pooled from the literature.
Compare with care: the assays were run in different laboratories. ± marks the error that the study gave.
CNR2: Cannabinoid receptor 2 (CNR2, Homo sapiens, UniProt P34972)
Chain of UniProt P34972 (whole entry, unmodified, looked up): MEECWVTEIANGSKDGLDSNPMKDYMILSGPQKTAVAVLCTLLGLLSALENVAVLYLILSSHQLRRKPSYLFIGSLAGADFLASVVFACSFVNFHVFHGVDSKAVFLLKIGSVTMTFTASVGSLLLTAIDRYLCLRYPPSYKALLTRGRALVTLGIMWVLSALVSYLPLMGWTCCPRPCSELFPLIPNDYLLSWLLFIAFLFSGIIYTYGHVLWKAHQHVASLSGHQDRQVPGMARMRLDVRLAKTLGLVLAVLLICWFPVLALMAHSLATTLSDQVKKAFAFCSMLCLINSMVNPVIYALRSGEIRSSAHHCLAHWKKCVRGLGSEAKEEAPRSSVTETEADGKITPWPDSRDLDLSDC

| SMILES | target or system | assay | system | conditions | scale | endpoint | result |
| --- | --- | --- | --- | --- | --- | --- | --- |
| C=C1CC/C=C(\C)CC[C@@H]2[C@@H]1CC2(C)C | CNR2 | [3H]CP55,940 binding, radioligand displacement | HEK293 cell membranes | 31.6 µM, with: 0.5 mg/mL BSA | – | inhibition | < 25% |
| CCCCCCC(C)(C)c1ccc([C@@H]2C[C@H](O)CC[C@H]2CCCO)c(O)c1 | CNR2 (Homo sapiens, UniProt P34972, V261L) | cAMP inhibition, agonist, CAMYEL BRET biosensor | – | with: 10 µM forskolin | relative to: wild type receptor | Emax | 62.7 ± 1.9% |
| CCC(CC)(NC(=O)c1ccc(C2CC2)c(Cc2ccc(F)cc2)n1)C(=O)NCCOCCOCCNC(=O)c1ccc2c(c1)C1(OC2=O)c2ccc(N(C)C)cc2[Si](C)(C)c2cc(N(C)C)ccc21 | CNR2 | binding | – | – | relative to: CB1 Ki over CB2 Ki | selectivity ratio | 0.7 |
| COC(=O)[C@@H](NC(=O)c1nn(Cc2ccc(F)cc2)c2ccccc12)C(C)(C)C | CNR2 | GTPase | – | – | relative to: compound | Gi GTP turnover minimum | 98% |
| Cc1[nH]nc(C(F)(F)F)c1Cc1sc2c(c1C(=O)N1C[C@](C)(O)CO1)c(=O)n(C)c(=O)n2C(C)C | human coronavirus OC43 | virus-induced cell killing | MRC-5 | screen | – | maximum inhibition | 15.1% |
| CC/C(=C(\c1ccccc1)c1ccc(OCCN(C)C)cc1)c1ccccc1 | CNR2 | measured: cAMP | CHO-hCB2 cells | 10 µM | relative to: basal | adenylyl cyclase activity increase | 36% |
| CCOC(=O)C(CC)(CCCSCCOCCOCCNc1ccc([N+](=O)[O-])c2nonc12)NC(=O)c1ccc(C2CC2)c(Cc2ccc(F)cc2)n1 (racemic) | CNR2 | radioligand binding | – | – | relative to: CB1 over CB2 (human) | Ki ratio | 17 |
| CC(Nc1nc(N2CCN(C)CC2)nc2ccccc12)c1ccccc1 (centres unmarked) | Vero-E6 | CellTiter-Glo ATP | – | concentration not given, 72 h, second round 5-point | relative to: DMSO 0%, hyamine -100%, more negative, more toxic | cytotoxicity efficacy | 0% |
| CN(C(=O)n1cnc(-c2ccc[n+]([O-])c2)c1)C1CCCCC1 | CNR2 | radioligand binding | – | 50 µM, with: [3H]WIN-55,212-2 | – | inhibition | 23% |
| CN1CCN(c2cc(-c3ccncc3)c(-c3ccc4ccccc4c3)nn2)CC1 | CNR2 | antagonist, FLIPR | – | 10 µM | – | inhibition | 0.2% |
| CNC(=O)[C@@H](NC(=O)c1cc(OCC2(C)COC2)c(C2CC2)cn1)C(C)(C)C | CNR2 | binding, [3H]-CP55940 displacement | – | – | relative to: CB1 Ki over CB2 Ki | selectivity ratio | 147 |
| CCC(CC)(NC(=O)c1ccc(C2CC2)c(Cc2ccc(F)cc2)n1)C(=O)NCCOCCOCCNC(=O)c1ccc2c(c1)C(=O)OC21c2ccc(N)c(S(=O)(=O)O)c2Oc2c1ccc(N)c2S(=O)(=O)O | CNR2 | binding | – | – | relative to: CB1 Ki over CB2 Ki | selectivity ratio | > 70 |
| Cc1nonc1Cn1nnc2c(N3CC[C@H](O)C3)nc(C(C)(C)C)nc21 | CNR2 | binding, [3H]-CP55940 displacement | – | – | relative to: CB1 Ki over CB2 Ki | selectivity ratio | > 939 |
| C[C@@H](O)[C@@H](CO)NC(=O)[C@@H](CCCNC(=N)N)NC(=O)[C@@H]1CCCN1C(=O)[C@@H]1CSSC[C@H](NC(=O)[C@H](Cc2ccccc2)NC(=O)CN2CCN(CC(=O)O)CCN(CC(=O)O)CCN(CC(=O)O)CC2)C(=O)N[C@@H](Cc2ccc(O)cc2)C(=O)N[C@@H](Cc2ccccc2)C(=O)N[C@@H](CCC(N)=O)C(=O)N[C@@H](CC(N)=O)C(=O)N1 [gallium-68 labelled] | – | – | human serum | 1 h, 37 °C | – | radiochemical purity | > 99% |
| Cc1nc([C@@](C)(CC2CC2)NC(=O)c2cc(OCC(F)(F)F)c(C3CC3)cn2)no1 | CNR2 | cAMP, agonist | CHO cells | – | relative to: CB1 EC50 over CB2 EC50 | selectivity ratio | 174 |
| O=C(Nc1cnccc1Cl)N1CCN(Cc2ccc3c(c2)OC(F)(F)O3)CC1 | CNR2 | binding | – | 10 µM, with: [3H]WIN-55,212-2 | – | inhibition | 10% |
| COc1cccc(-c2ccc(CN3CCCC(c4nc5ccc(C)cc5c(=O)[nH]4)C3)cc2)c1 (centres unmarked) | Vero-E6 | CellTiter-Glo ATP | – | 72 h, second round 5-point | relative to: DMSO 0%, hyamine -100%, more negative, more toxic | maximum response | 6.16% |
| CCOC(=O)C(CC)(CCCSC)NC(=O)c1ccc(C2CC2)c(Cc2ccc(F)cc2)n1 (centres unmarked) | CNR2 | radioligand binding | – | – | relative to: CB1 over CB2 (human) | Ki ratio | 7 |
| Cc1c(C(=O)NN2CCCCC2)nn(-c2ccc(Cl)cc2Cl)c1-c1ccc(Cl)cc1 | CNR2 | binding | CHO, membranes | 0.0005 µM, with: [3H]CP-55,940 0.5 nM | – | displacement | 56.5 ± 5.2% |
| CCOC(=O)[C@](CC)(CCC[S+]([O-])CCOCCOCCNC(=O)OC(C)(C)C)NC(=O)c1ccc(C2CC2)c(Cc2ccc(F)cc2)n1 (some centres unmarked) | CNR2 | cAMP level | – | with: forskolin | relative to: hCB1 over hCB2 | selectivity ratio | ≥ 577 fold |
| O=C(Nc1cccnn1)N1CCC(=Cc2cccc(Oc3ccc(C(F)(F)F)cn3)c2)CC1 | CNR2 | binding | – | 50 µM, with: [3H]WIN-55,212-2 | – | inhibition | 66% |
| CCOC(=O)C(CC)(CCCSCCOCCOCCOCCNC(=O)OC(C)(C)C)NC(=O)c1ccc(C2CC2)c(Cc2ccc(F)cc2)n1 (centres unmarked) | CNR2 | radioligand binding | – | – | relative to: CB1 over CB2 (human) | Ki ratio | 4 |
| COc1cc(O)c2c(c1)C(=O)c1cc(C)cc(O)c1C2=O | human coronavirus OC43 | virus-induced cell killing | MRC-5 | screen | – | maximum inhibition | 15.1% |
